Measurements of several laboratories.
Lines come from different studies, so protocols differ. ± gives the spread as reported.

Compound | test | system | conditions | scale | AUC(0-inf)
CN(Cc1nc2c(N)nc(N)nc2[nH]c1=O)c1ccc(C(=O)N[C@@H](CCC(=O)O)C(=O)O)cc1 | – | human, plasma | oral, 15 mg methotrexate, day 1, alone, arithmetic mean | – | 1.47 µg·h/mL
COC(=O)c1ccc2c(c1)NC(=O)/C2=C(\Nc1ccc(N(C)C(=O)CN2CCN(C)CC2)cc1)c1ccccc1 | – | human, Child-Pugh A hepatic impairment, plasma | oral, 100 mg, single dose, fed | adjusted geometric mean | 0.2 µg·h/mL
CO[C@H]1C[C@@H]2CC[C@@H](C)[C@@](O)(O2)C(=O)C(=O)N2CCCC[C@H]2C(=O)O[C@H]([C@H](C)C[C@@H]2CC[C@@H](O)[C@H](OC)C2)CC(=O)[C@H](C)/C=C(\C)[C@@H](O)[C@@H](OC)C(=O)[C@H](C)C[C@H](C)/C=C/C=C/C=C/1C | – | human, whole blood | oral, 15 mg, without grapefruit juice | – | 0.858 µg·h/mL
COc1cc2ncnc(Nc3ccc(F)c(Cl)c3)c2cc1OCCCN1CCOCC1 | – | human, plasma | oral, 250 mg, together with: vorinostat 400 mg | – | 0.00954 ± 0.00806 µg·h/mL
CN(C)Cc1c(C(=O)NCCOc2ccc(C(=O)NO)cc2)oc2ccccc12 | – | human, plasma | oral, 60 mg single dose | – | 0.242 ± 0.041 µg·h/mL
CCCC[C@H](NC(C)=O)C(=O)N[C@H]1CCC(=O)NC[C@@H](C(=O)N[C@@H](Cc2c[nH]c3ccccc23)C(N)=O)NC(=O)[C@H](CCCNC(=N)N)NC(=O)[C@@H](Cc2ccccc2)NC(=O)[C@H](Cc2c[nH]cn2)NC1=O | – | healthy human volunteers, plasma | subcutaneous, 3.0 mg once daily, day 7 | – | 0.202 µg·h/mL
C=CC(=O)Nc1cc(Nc2ncc(C(=O)OC(C)C)c(-c3cn(C)c4ccccc34)n2)c(OC)cc1N(C)CCN(C)C | – | human, fasted | oral, 80 mg single dose, geometric mean | – | 0.257 µg·h/mL
CCOc1cc([C@@H](CS(C)(=O)=O)N2C(=O)c3cccc(NC(C)=O)c3C2=O)ccc1OC | – | healthy human, male, plasma | oral, 20 mg single dose, without ketoconazole | – | 2.07 µg·h/mL
CO[C@H]1C[C@@H]2CC[C@@H](C)[C@@](O)(O2)C(=O)C(=O)N2CCCC[C@H]2C(=O)O[C@H]([C@H](C)C[C@@H]2CC[C@@H](O)[C@H](OC)C2)CC(=O)[C@H](C)/C=C(\C)[C@@H](O)[C@@H](OC)C(=O)[C@H](C)C[C@H](C)/C=C/C=C/C=C/1C | – | healthy adult human, blood | oral, 0.5 mg single dose, geometric mean, together with: ritonavir-containing 3D regimen | – | 1.7 µg·h/mL
C[C@@H](Oc1cc(-c2cnn(C3CCNCC3)c2)cnc1N)c1c(Cl)ccc(F)c1Cl | – | healthy human, plasma | oral, 250 mg single fasted, geometric mean | – | 2.44 µg·h/mL
O=C(/C=C/c1cccc(S(=O)(=O)Nc2ccccc2)c1)NO | – | human mild liver dysfunction, plasma | intravenous, 400 mg/m^2, 30 min infusion, cycle 1 day -7 | – | 14.3 µg·h/mL
CC(=O)O[C@H]1C(=O)[C@@]2(C)[C@H]([C@H](OC(=O)c3ccccc3)[C@]3(O)C[C@H](OC(=O)[C@H](O)[C@@H](NC(=O)c4ccccc4)c4ccccc4)C(C)=C1C3(C)C)[C@]1(OC(C)=O)CO[C@@H]1C[C@@H]2O | – | human patients on nelfinavir alone, plasma | iv, 100 mg/m^2 over 3 h, cycle 1 | – | 5.8 ± 2.2 µM·h
CNC(=O)c1c(C)oc2cc(Oc3ncnc4cc(OC)c(OC)cc34)ccc12 | – | human, plasma | oral, 5 mg, fasted, together with: rabeprazole 40 mg | – | 5.52 µg·h/mL
CC(C)C[C@H](NC(=O)[C@H](CCc1ccccc1)NC(=O)CN1CCOCC1)C(=O)N[C@@H](Cc1ccccc1)C(=O)N[C@@H](CC(C)C)C(=O)[C@@]1(C)CO1 | – | human patients, plasma | intravenous infusion 10 min, 20 mg/m^2, day 1 of cycle 1, KRd regimen | – | 0.326 ± 0.0735 µg·h/mL
Cl.NCCc1c[nH]c(=S)n1[C@H]1COc2c(F)cc(F)cc2C1 | mean | human, male, plasma | oral, 200 mg, fed, high-fat high-calorie meal | – | 2.12 µg·h/mL
CCCc1nn(C)c2c(=O)[nH]c(-c3cc(S(=O)(=O)N4CCN(C)CC4)ccc3OCC)nc12 | – | human, male, plasma | oral, 50 mg, day 1 | – | 0.541 µg·h/mL
C=CC(=O)N1CCC([C@@H]2CCNc3c(C(N)=O)c(-c4ccc(Oc5ccccc5)cc4)nn32)CC1 | – | human | oral, 480 mg, single dose, mean | – | 3.06 µg·h/mL
CC(=O)C[C@@H](c1ccccc1)c1c(O)c2ccccc2oc1=O | – | human | 200 mg | – | 48.1 ± 19.7 µg·h/mL
C#C[C@]1(O)CC[C@H]2[C@@H]3CCC4=CC(=O)CC[C@@H]4[C@H]3CC[C@@]21C | – | human female, plasma | oral, 1 mg, day 1, together with: ethinyl estradiol 35 µg | – | 0.0409 µg·h/mL
Cc1nc2cccc(N)c2c(=O)n1C1CCC(=O)NC1=O (centres unmarked) | – | healthy adult human, plasma | oral, 3 mg, geometric mean, together with: rifampin 600 mg once daily | – | 0.461 µg·h/mL
Cc1nc2c(F)cc(-c3nc(Nc4ccc(CN5CCNCC5)cn4)ncc3F)cc2n1C(C)C | – | human patients | oral, 150 mg single, geometric mean | – | 1.29 µg·h/mL
CN(Cc1cnc2nc(N)nc(N)c2n1)c1ccc(C(=O)N[C@@H](CCC(=O)O)C(=O)O)cc1 | – | human, plasma | oral, 10 mg, together with: apremilast 30 mg twice daily | – | 1.3 µg·h/mL

Compound | test | system | conditions | scale | AUC(0-inf)
O=C1NC(=O)C(Cc2ccc(OCCNc3ccccn3)cc2)S1 (centres unmarked) | – | human, plasma | oral, 4 mg rosiglitazone alone, day 1, metabolite, geometric mean | – | 2190 µg·h/mL
C=C(C)[C@@H]1CC[C@]2(NCCN3CCS(=O)(=O)CC3)CC[C@]3(C)[C@H](CC[C@@H]4[C@@]5(C)CC=C(C6=CC[C@@](CF)(C(=O)O)CC6)C(C)(C)[C@@H]5CC[C@]43C)[C@@H]12 | – | healthy human volunteers | oral, 200 mg, tablet, moderate-fat meal, arithmetic mean | – | 39.4 µg·h/mL
Cc1ccc(C(=O)NC2CC2)cc1-n1ncc(C(=O)c2cccc(C#N)c2)c1N | – | human, plasma | oral, 14 mg, single dose alone, geometric mean | – | 5.95 µg·h/mL
C/C(=C\c1csc(C)n1)[C@@H]1C[C@@H]2O[C@]2(C)CCC[C@H](C)[C@H](O)[C@@H](C)C(=O)C(C)(C)[C@@H](O)CC(=O)N1 | LC-MS/MS | human, plasma | intravenous infusion, 70 mg, 3 h infusion | – | 2.49 µg·h/mL
Cc1ccc(NC(=O)c2ccc(CN3CCNCC3)cc2)cc1Nc1nccc(-c2cccnc2)n1 | – | human patients, plasma | oral, 400 mg/day of imatinib, day 14 of cycle 1, together with: IL-2 6 MIU/day days 10-14 | – | 37 µg·h/mL
NS(=O)(=O)OC[C@@H]1C[C@@H](n2ccc3c(N[C@H]4CCc5ccccc54)ncnc32)C[C@@H]1O | – | human | iv, 8 mg/m^2 single dose, day 8, geometric mean, together with: fluconazole | – | 0.498 µg·h/mL
Cc1c(Cl)c(C)[n+]([O-])c(Cl)c1-c1noc(-c2cc(O)c(O)c([N+](=O)[O-])c2)n1 | LC-MS/MS | healthy male human, fasted, plasma | oral, 50 mg single dose, tablet | – | 5.2 ± 1.53 µg·h/mL
COc1cc(OC)c(/C=C/S(=O)(=O)Cc2ccc(OC)c(NCC(=O)O)c2)c(OC)c1 | – | human, patients with urinary symptoms, urine | oral, 560 mg | – | 5.89 µg·h/mL
O=c1[nH]c(=O)c(Cc2cccc(C(F)(F)F)c2)c([C@H]2CC[C@H](c3ccccc3)CC2)[nH]1 | – | human, fasted, plasma | oral, 900 mg single dose, geometric mean | – | 7.64 µg·h/mL
NCCCS(=O)(=O)O | – | human, plasma | oral, 100 mg loose-filled capsule, single dose | – | 3.33 ± 1.37 µg·h/mL
Cc1ccc(NC(=O)c2ccc(CN3CCN(C)CC3)cc2)cc1Nc1nccc(-c2cncc(-c3oncc3C)c2)n1 | – | older healthy human adults, plasma | oral, 25.0 mg single dose, fed, mean | – | 23.4 µg·h/mL
CC(C)NC[C@@H](C(=O)N1CCN(c2ncnc3c2[C@H](C)C[C@H]3O)CC1)c1ccc(Cl)cc1 | – | human, matched normal hepatic function (Child-Pugh), plasma | oral, 100 mg single, reference geometric mean, vs Mild | – | 0.36 µg·h/mL
CCCS(=O)(=O)N[C@H]1C[C@@H](N(C)c2ncnc3[nH]ccc23)C1 | – | humans, moderate hepatic impairment | oral, 200 mg single | – | 8.6 µg·h/mL
C[C@H]1O[C@@H](O[C@H]2[C@@H](O)C[C@H](O[C@H]3[C@@H](O)C[C@H](O[C@H]4CC[C@@]5(C)[C@H](CC[C@@H]6[C@@H]5C[C@@H](O)[C@]5(C)[C@@H](C7=CC(=O)OC7)CC[C@]65O)C4)O[C@@H]3C)O[C@@H]2C)C[C@H](O)[C@@H]1O | – | human | oral, 0.5 mg single dose, day 19, together with: isavuconazole 200 mg once daily | – | 0.0421 µg·h/mL
CCn1c(=O)c2c(nc(/C=C/c3ccc(OC)c(OC)c3)n2C)n(CC)c1=O | – | healthy human, plasma | oral, 40 mg single dose, geometric mean, together with: rifampin 600 mg/day steady state | – | 2.03 µg·h/mL
COCCCCn1c(C(=O)N(CC(C)C)[C@@H]2CNC[C@H](C(=O)N3CCOCC3)C2)nc2ccccc21 | – | human, non-elderly, plasma | oral, 80 mg, multiple doses, day 1, mean | – | 4.22 µg·h/mL
CC#CC(=O)NCCCC(=O)c1nc(-c2ccc(C(=O)Nc3ccccn3)cc2)c2c(N)nccn12 | – | human, healthy control, plasma | oral, 50 mg acalabrutinib, single, geometric mean | – | 0.817 µg·h/mL
CN[C@@H]1COc2c(S(=O)(=O)NC(=O)Nc3c4c(cc5c3CCC5)CCC4)cnn2C1 | – | human | oral, 600 mg, fasted, mean | – | 173 µg·h/mL
NC1(c2ccc(-c3nc4ccn5c(=O)[nH]nc5c4cc3-c3ccccc3)cc2)CCC1 | – | human patients, plasma | oral, 90 mg, expansion, dose reduced, together with: dinaciclib 9 mg/m^2 | – | 6.24 µg·h/mL
CC(C)(Sc1ccncc1-c1ccc(C#N)c2ccccc12)C(=O)O | – | humans, male, normal renal function, fasted, plasma | oral, 15 mg | – | 0.162 µg·h/mL
CC[C@@]1(O)C(=O)OCc2c1cc1n(c2=O)Cc2cc3c(CN(C)C)c(O)ccc3nc2-1 | – | human patients | oral, 4 mg, geometric mean, alone | – | 0.061 µg·h/mL
CCn1c(C(=O)c2cc(C)cc(C#N)c2)c(C(C)C)c(=O)[nH]c1=O | – | healthy humans, plasma | oral, 75 to 600 mg single dose, range of dose-group means | – | 11.1 to 33.7 µg·h/mL

Repeated from above:
Compound | test | system | conditions | scale | AUC(0-inf)
CC#CC(=O)NCCCC(=O)c1nc(-c2ccc(C(=O)Nc3ccccn3)cc2)c2c(N)nccn12 | – | human, healthy control, plasma | oral, 50 mg acalabrutinib, single, geometric mean | – | 0.817 µg·h/mL
CN(Cc1nc2c(N)nc(N)nc2[nH]c1=O)c1ccc(C(=O)N[C@@H](CCC(=O)O)C(=O)O)cc1 | – | human, plasma | oral, 15 mg methotrexate, day 1, alone, arithmetic mean | – | 1.47 µg·h/mL
CCn1c(=O)c2c(nc(/C=C/c3ccc(OC)c(OC)c3)n2C)n(CC)c1=O | – | healthy human, plasma | oral, 40 mg single dose, geometric mean, together with: rifampin 600 mg/day steady state | – | 2.03 µg·h/mL
